Results collected from several papers.
Every numbered part comes from another study and shows a few of its results, in no order. “And” joins repeats or separate records; there may be more than shown.
Sequence of UniProt P22455 (whole entry, looked up): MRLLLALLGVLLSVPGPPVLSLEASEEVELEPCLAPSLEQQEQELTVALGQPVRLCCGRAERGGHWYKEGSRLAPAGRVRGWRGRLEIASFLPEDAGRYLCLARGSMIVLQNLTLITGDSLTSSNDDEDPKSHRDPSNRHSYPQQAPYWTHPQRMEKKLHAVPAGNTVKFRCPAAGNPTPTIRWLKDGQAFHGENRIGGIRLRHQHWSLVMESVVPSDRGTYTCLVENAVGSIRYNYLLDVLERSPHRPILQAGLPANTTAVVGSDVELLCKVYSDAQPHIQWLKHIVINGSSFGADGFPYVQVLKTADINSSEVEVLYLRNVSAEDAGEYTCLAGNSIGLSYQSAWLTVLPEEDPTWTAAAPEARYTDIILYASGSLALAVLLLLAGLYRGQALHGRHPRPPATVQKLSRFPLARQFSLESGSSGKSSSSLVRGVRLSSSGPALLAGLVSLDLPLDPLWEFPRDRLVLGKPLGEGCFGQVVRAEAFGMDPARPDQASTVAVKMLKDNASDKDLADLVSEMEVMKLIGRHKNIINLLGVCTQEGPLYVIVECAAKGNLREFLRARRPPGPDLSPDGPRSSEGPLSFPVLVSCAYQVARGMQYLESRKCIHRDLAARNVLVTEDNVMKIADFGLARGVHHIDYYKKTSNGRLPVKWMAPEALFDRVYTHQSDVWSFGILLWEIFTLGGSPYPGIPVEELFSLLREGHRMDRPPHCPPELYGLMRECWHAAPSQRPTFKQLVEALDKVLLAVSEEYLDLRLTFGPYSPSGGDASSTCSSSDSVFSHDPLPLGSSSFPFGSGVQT
Sequence of UniProt Q00532 (whole entry, looked up): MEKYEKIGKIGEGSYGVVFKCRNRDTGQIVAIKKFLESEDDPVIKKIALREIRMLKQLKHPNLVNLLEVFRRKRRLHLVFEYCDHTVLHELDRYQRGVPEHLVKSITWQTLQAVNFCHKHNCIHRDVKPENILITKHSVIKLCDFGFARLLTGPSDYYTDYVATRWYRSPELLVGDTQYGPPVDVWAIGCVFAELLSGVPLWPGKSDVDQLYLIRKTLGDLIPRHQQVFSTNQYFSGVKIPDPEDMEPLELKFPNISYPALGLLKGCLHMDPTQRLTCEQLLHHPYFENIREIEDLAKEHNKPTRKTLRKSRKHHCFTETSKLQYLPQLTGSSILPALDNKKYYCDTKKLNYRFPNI
Sequence of UniProt Q86Z02 (whole entry, looked up): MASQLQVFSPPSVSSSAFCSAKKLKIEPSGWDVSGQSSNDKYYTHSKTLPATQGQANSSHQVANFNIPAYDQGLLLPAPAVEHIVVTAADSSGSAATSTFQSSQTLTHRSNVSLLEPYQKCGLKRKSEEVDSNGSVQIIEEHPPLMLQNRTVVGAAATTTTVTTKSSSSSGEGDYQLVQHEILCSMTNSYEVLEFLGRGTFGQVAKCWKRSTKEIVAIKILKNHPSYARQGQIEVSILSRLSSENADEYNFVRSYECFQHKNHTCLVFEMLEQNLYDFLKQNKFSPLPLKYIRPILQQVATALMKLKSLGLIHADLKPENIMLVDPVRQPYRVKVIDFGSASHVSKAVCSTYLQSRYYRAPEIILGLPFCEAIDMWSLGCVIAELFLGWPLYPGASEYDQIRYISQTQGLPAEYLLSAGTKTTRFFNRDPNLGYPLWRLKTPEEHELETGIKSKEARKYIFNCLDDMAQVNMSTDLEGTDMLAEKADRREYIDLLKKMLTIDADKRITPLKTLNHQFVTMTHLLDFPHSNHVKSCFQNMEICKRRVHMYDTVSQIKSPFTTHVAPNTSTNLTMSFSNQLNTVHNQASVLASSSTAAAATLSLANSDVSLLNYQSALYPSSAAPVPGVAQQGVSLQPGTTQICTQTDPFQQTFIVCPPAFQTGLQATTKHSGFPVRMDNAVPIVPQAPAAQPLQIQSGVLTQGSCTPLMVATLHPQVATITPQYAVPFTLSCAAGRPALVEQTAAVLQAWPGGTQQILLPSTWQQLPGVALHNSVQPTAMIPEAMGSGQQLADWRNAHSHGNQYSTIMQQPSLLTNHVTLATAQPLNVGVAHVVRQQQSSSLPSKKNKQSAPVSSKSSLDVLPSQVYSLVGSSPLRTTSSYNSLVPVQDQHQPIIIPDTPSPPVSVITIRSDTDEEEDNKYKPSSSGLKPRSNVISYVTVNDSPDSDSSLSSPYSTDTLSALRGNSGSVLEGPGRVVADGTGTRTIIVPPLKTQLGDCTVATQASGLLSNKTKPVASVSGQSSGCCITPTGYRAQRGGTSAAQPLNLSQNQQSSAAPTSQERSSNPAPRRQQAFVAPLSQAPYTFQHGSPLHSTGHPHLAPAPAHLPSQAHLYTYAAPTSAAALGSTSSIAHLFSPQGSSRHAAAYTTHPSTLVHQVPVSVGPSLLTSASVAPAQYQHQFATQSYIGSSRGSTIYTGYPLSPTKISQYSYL
Sequence of UniProt P10721 (whole entry, unmodified, looked up): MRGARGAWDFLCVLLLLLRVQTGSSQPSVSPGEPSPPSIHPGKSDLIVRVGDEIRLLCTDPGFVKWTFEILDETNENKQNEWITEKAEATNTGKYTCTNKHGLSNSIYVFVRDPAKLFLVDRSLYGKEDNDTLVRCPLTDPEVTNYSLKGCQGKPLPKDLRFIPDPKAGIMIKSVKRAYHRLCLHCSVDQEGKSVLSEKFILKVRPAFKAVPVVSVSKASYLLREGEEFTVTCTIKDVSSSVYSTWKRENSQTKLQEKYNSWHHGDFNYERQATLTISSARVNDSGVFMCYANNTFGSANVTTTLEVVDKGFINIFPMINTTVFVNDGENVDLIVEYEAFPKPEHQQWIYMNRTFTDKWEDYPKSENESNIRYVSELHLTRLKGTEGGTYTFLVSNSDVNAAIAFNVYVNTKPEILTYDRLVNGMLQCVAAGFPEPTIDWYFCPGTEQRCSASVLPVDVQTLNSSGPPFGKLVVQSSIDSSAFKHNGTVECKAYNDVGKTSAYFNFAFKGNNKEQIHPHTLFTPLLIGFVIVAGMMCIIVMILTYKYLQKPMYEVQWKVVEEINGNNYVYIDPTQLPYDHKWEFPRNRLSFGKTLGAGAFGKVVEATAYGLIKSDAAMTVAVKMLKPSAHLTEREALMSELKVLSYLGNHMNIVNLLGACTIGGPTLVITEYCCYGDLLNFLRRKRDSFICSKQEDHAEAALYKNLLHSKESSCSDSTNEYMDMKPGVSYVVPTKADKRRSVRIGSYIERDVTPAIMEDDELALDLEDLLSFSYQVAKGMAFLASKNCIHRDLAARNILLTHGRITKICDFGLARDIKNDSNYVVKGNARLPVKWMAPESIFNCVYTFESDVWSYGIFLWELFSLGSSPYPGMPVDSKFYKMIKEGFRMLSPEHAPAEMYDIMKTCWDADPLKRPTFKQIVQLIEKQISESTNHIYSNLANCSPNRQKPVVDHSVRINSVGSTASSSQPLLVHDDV
Sequence of UniProt Q13470 (whole entry, looked up): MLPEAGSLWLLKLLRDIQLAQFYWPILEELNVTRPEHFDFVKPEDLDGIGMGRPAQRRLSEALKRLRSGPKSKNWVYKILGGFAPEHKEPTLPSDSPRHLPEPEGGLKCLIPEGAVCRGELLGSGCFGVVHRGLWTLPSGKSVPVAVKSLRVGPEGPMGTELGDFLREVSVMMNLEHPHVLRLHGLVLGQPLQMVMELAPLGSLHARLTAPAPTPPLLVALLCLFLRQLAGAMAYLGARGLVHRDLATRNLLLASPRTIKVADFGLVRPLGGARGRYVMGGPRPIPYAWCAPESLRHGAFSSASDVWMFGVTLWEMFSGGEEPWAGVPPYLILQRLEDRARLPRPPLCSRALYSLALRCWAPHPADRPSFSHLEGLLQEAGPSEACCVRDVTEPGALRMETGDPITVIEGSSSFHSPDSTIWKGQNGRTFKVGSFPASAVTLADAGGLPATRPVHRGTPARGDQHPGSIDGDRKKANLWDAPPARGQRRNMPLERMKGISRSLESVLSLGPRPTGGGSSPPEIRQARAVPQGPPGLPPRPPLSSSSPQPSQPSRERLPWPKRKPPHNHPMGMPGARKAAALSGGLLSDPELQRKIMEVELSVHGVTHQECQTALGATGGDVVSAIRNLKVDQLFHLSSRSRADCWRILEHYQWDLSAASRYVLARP

Block 1 — action: antagonist
Target: Beta-1 adrenergic receptor (ADRB1, Homo sapiens, UniProt P08588)
Sequence of UniProt P08588 (whole entry, looked up): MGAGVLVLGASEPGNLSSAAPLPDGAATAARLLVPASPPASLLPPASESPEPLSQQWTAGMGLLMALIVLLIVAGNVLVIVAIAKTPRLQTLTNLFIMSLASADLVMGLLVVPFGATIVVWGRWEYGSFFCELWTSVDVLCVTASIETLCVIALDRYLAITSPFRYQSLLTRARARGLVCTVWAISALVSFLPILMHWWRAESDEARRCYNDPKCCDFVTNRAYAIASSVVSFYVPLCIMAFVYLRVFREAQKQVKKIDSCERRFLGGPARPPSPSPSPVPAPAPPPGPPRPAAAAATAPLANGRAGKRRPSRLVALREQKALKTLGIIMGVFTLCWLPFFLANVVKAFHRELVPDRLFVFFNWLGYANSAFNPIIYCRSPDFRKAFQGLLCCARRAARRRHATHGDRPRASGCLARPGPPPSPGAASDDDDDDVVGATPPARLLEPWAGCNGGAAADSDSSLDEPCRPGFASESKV
SMILES | IC50 [µM]
c1ccc(-c2n[nH]c3ncc(-c4cn[nH]c4)nc23)cc1 | ≥ 100
COc1ccccc1NC(=O)c1sc2nc(C)c(C(=O)Nc3ccc(C)cc3C)c(-c3ccc(C)o3)c2c1N | ≥ 100
COc1ccccc1N1CCN([C@H]2[C@@H]3OC[C@@H](O3)[C@@H](NCc3ccc(-c4ccccc4)cc3)[C@@H]2O)CC1 | ≥ 100
COc1ccc(OCC(O)CN2CCC(O)CC2)c(CN(C)Cc2csc(C)n2)c1 (centres unmarked) | ≥ 100
c1cc(N[C@@H]2CCNC2)nc(-c2cnc3ccc(-c4cn[nH]c4)cn23)c1 | ≥ 100
CC(C)c1noc(-c2ccc(N(C)CC(O)c3ccccc3)nc2)n1 (centres unmarked) | ≥ 100
COc1ccccc1N1CCN([C@@H]2[C@H](O)[C@H](CO)O[C@@H]2CN(Cc2ccc(F)cc2)Cc2ccc(F)cc2)CC1 | 31.6
Cc1oc(C(O)c2ccccc2)nc1C(=O)NCCN1CCOCC1 (centres unmarked) | ≥ 100
CS(=O)(=O)N(CC(O)Cn1c2ccccc2c2ccccc21)c1ccccc1I (centres unmarked) | ≥ 100
Clc1ccccc1N1CCN(C2CCNCC2)CC1 | ≥ 100
Cc1cccnc1NCCNc1nc(C(C)C)nc2c1cnn2C | ≥ 100
COc1ccc(-c2ccc3ccccc3n2)c(OC)c1OC | ≥ 100
Cc1noc2c(NCCc3ccccn3)cc(-c3ccccc3)nc12 | ≥ 100
O=C(Nc1ccc([C@@H](O)[C@H]2COCC(=O)N2Cc2ccc(F)cc2)cc1)c1cccs1 | ≥ 100
Fc1ccc(-c2ccc3ncc(Nc4cc(F)cc(N5CCOCC5)c4)n3n2)cc1 | ≥ 100
Cc1nc(Nc2cnn(C3CCNCC3)c2)nc2c1N(C)C(=O)c1cc3ccccc3cc1N2C | ≥ 100
COc1ccccc1N1CCN([C@H]2[C@@H]3OC[C@@H](O3)[C@@H](N(CC3CC3)CC3CC3)[C@@H]2O)CC1 | ≥ 100
COc1cc(NC(=O)CCN2CCC(OC(=O)Nc3ccccc3-c3ccccc3)CC2)c(Cl)cc1CNC[C@H](O)c1ccc(O)c2[nH]c(=O)ccc12 | ≥ 100
CC1=CCN(Cc2ccc(OCC(O)CN3CCN(C)CC3)cc2)CC1 (centres unmarked) | ≥ 100

Block 2 — observed: cell-free assay; technique: competition with immobilised ligand; tested at: 1 µM
SMILES: CNC(=O)Nc1ccc2c(c1)[C@@]1(CC2)OC(=O)N(CC(=O)N(Cc2ccc(F)cc2)[C@@H](C)C(F)(F)F)C1=O
target | remaining binding [%]
Serine/threonine-protein kinase 38 (STK38, Homo sapiens, UniProt Q15208) | 79
Serine/threonine-protein kinase DCLK3 (DCLK3, Homo sapiens, UniProt Q9C098) | 81
Tyrosine-protein kinase ABL1, phosphorylated (ABL1, Homo sapiens, UniProt P00519, Q252H) | 97
Dual specificity tyrosine-phosphorylation-regulated kinase 1A (DYRK1A, Homo sapiens, UniProt Q13627) | 77
Dual specificity protein kinase CLK1 (CLK1, Homo sapiens, UniProt P49759) | 82
Tyrosine-protein kinase Yes (YES1, Homo sapiens, UniProt P07947) | 85
1-phosphatidylinositol 3-phosphate 5-kinase (PIKFYVE, Homo sapiens, UniProt Q9Y2I7) | 72
Mast/stem cell growth factor receptor Kit (KIT, Homo sapiens, UniProt P10721, T670I/V559D) | 100
Dual specificity mitogen-activated protein kinase kinase 2 (MAP2K2, Homo sapiens, UniProt P36507) | 99
Serine/threonine-protein kinase Sgk3 (SGK3, Homo sapiens, UniProt Q96BR1) | 72
Epidermal growth factor receptor (EGFR, Homo sapiens, UniProt P00533, G719S) | 100
Tyrosine-protein kinase ABL1, non-phosphorylated (ABL1, Homo sapiens, UniProt P00519, H396P) | 53
SNF-related serine/threonine-protein kinase (SNRK, Homo sapiens, UniProt Q9NRH2) | 100
Non-receptor tyrosine-protein kinase TNK1 (TNK1, Homo sapiens, UniProt Q13470) | 100
Homeodomain-interacting protein kinase 1 (HIPK1, Homo sapiens, UniProt Q86Z02) | 78
Fibroblast growth factor receptor 4 (FGFR4, Homo sapiens, UniProt P22455) | 98
Casein kinase I isoform alpha (CSNK1A1, Homo sapiens, UniProt P48729) | 83
Cyclin-dependent kinase-like 1 (CDKL1, Homo sapiens, UniProt Q00532) | 91
Phosphatidylinositol 4-phosphate 3-kinase C2 domain-containing subunit beta (PIK3C2B, Homo sapiens, UniProt O00750) | 99
Tyrosine-protein kinase ABL1, non-phosphorylated (ABL1, Homo sapiens, UniProt P00519) | 93
Epithelial discoidin domain-containing receptor 1 (DDR1, Homo sapiens, UniProt Q08345) | 100
Serine/threonine-protein kinase TAO1 (TAOK1, Homo sapiens, UniProt Q7L7X3) | 97

Block 3 — cell line: mouse MPNST tumor cells; technique: high-content immunofluorescence imaging; item: nuclear SOX9; tested at: 10 µM; time: 12 h; setting: mean of 2 replicates; relative to: DMSO control; reading: higher = more nuclear SOX9
Compound | nuclear SOX9 intensity
Cc1cc(N2CCOCC2)cc2[nH]c(-c3c(NCC(O)c4cccc(Cl)c4)cc[nH]c3=O)nc12 (centres unmarked) | 96 % of DMSO
CC12CC3CC(C)(C1)CC(N)(C3)C2 | 102 % of DMSO and 108 % of DMSO
O=C(O)c1ccc(-c2ccc3cc(O)c(C45CC6CC(CC(C6)C4)C5)cc3c2)cc1 | 113 % of DMSO
Nc1cccc2c1CN(C1CCC(=O)NC1=O)C2=O (centres unmarked) | 121 % of DMSO
CC(C)S(=O)(=O)c1ccc2nccc(Nc3ccc4scnc4c3)c2c1 | 131 % of DMSO
COCCOCc1ccc(-c2cc3onc(-c4ccccc4)c3c(=O)n2C)cc1 | 104 % of DMSO
CC(C)CN(C[C@@H](O)[C@H](Cc1ccccc1)NC(=O)O[C@H]1CCOC1)S(=O)(=O)c1ccc(N)cc1 | 103 % of DMSO and 91.2 % of DMSO
O=C(CCCCCCC(=O)Nc1cccnc1)NO | 122 % of DMSO
O=C(CN1CCN(C(=O)c2ccco2)CC1)Nc1cc(C(F)(F)F)ccc1Cl | 88.5 % of DMSO
CC(C)NCC(O)c1ccc(O)c(O)c1 (single isomer, unassigned; (+)) | 98.3 % of DMSO
CCOc1cc(/C=C2/C(=O)N(c3ccccc3)N=C2C)cc(Cl)c1OCC(=O)OC | 95.8 % of DMSO
COc1ccc2[nH]c([S+]([O-])Cc3ncc(C)c(OC)c3C)nc2c1 (centres unmarked) | 107 % of DMSO
CS(=O)(=O)OCCCCOS(C)(=O)=O | 137 % of DMSO and 100 % of DMSO
O=C(O)c1ccccc1C(=O)Nc1ccc(-c2ccccc2)cc1 | 95.1 % of DMSO
Cc1ncsc1-c1ccc(CNC(=O)[C@@H]2C[C@@H](O)CN2C(=O)[C@@H](NC(=O)C2(C#N)CC2)C(C)(C)C)cc1 | 98.1 % of DMSO
CCCC(=O)Nc1cccc(NC(=O)c2ccccc2Br)c1 | 95.9 % of DMSO
C[C@H]1[C@@H](O)O[C@@H]2O[C@@]3(C)CC[C@H]4[C@H](C)CC[C@@H]1[C@@]24OO3 | 97.9 % of DMSO
COc1ccccc1OCCNCC(O)COc1cccc2[nH]c3ccccc3c12 (centres unmarked) | 188 % of DMSO

Block 4 — observed: enzyme activity; action: inhibitor; tested at: 0.5 µM; relative to: control
Target: Calcium/calmodulin-dependent protein kinase type II subunit alpha (CAMK2A, Homo sapiens, UniProt Q9UQM7)
Sequence of UniProt Q9UQM7 (whole entry, looked up): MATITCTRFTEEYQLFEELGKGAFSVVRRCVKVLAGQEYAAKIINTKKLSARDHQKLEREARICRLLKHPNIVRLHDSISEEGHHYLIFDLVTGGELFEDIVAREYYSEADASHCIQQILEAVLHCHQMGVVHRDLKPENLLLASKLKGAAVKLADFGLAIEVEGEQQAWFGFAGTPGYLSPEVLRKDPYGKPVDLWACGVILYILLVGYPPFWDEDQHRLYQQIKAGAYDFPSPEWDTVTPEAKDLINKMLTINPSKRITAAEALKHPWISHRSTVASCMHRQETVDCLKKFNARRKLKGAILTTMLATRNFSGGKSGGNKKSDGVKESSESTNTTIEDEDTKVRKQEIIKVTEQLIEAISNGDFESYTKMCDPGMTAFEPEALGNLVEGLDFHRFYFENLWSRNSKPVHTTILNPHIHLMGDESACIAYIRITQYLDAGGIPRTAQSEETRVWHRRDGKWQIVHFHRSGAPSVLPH
Compound | remaining activity [%]
Nc1ncnc2c1cnn2-c1ccccc1 | 105
Cc1cncc2cccc(S(=O)(=O)N3CCCN(C(=O)CN)C[C@@H]3C)c12 | 93.2
Fc1ccc(-c2nc3n(c2-c2ccncc2)CCS3)cc1 | 106
CC#CC(=O)Nc1cc2c(Nc3ccc(F)c(Cl)c3)ncnc2cn1 | 108
Nc1nc(Nc2ccc(S(N)(=O)=O)cc2)nn1C(=O)c1c(F)cccc1F | 104
CC(=O)c1ccc(N2CCOCC2)cc1O | 104
O=C1NC(=O)C(c2c[nH]c3ccccc23)=C1c1c[nH]c2ccccc12 | 85.3
CCc1[nH]c(-c2ccc(OC)cc2)nc1-c1ccncc1 | 105
NC(=O)c1ccc(N(C(N)=O)c2c(F)cccc2F)nc1-c1ccc(F)cc1F | 90.9
Cc1ccc(NC2=CC(=O)c3sc(C)nc3C2=O)cc1 | 101
O=S(=O)(NCCNC/C=C/c1ccc(Br)cc1)c1cccc2cnccc12 | 102
N#CC(=C(N)Sc1ccc(N)cc1)c1ccccc1C(F)(F)F | 111
O=C1Cc2c([nH]c3ccc([N+](=O)[O-])cc23)-c2ccccc2N1 | 88.4
CC(C)(C)n1nc(Cc2cccc3ccccc23)c2c(N)ncnc21 | 108
COc1ccc(S(=O)(=O)N(CCO)c2ccccc2CN(C)CC=Cc2ccc(Cl)cc2)cc1 | 107
Oc1ccc(Nc2nc(-c3ccc(Cl)cc3)cs2)cc1 | 106
Nc1nccc(-c2c(-c3ccc(F)cc3)ncn2C2CCNCC2)n1 | 100
CSc1nc(-c2ccnc(N[C@@H](C)c3ccccc3)c2)c(-c2ccc(F)cc2)[nH]1 (racemic) | 96.5
CC[n+]1c(/C=C/N(C)c2ccccc2)n(-c2ccccc2)c2ccc(-c3nc4ccccc4s3)cc21 | 103
CCCC(=O)Oc1ccc2[nH]c(C(=O)c3cc4ccccc4[nH]3)cc2c1 | 87
Cc1cc(Nc2nc(-c3ccccc3)nc3ccccc23)n[nH]1 | 108

A few entries again (block 4):
Compound | remaining activity [%]
Cc1cncc2cccc(S(=O)(=O)N3CCCN(C(=O)CN)C[C@@H]3C)c12 | 93.2
Fc1ccc(-c2nc3n(c2-c2ccncc2)CCS3)cc1 | 106
CC#CC(=O)Nc1cc2c(Nc3ccc(F)c(Cl)c3)ncnc2cn1 | 108
Nc1nc(Nc2ccc(S(N)(=O)=O)cc2)nn1C(=O)c1c(F)cccc1F | 104
CC(=O)c1ccc(N2CCOCC2)cc1O | 104
O=C1NC(=O)C(c2c[nH]c3ccccc23)=C1c1c[nH]c2ccccc12 | 85.3
CCc1[nH]c(-c2ccc(OC)cc2)nc1-c1ccncc1 | 105
